Measured values from different studies.
Each numbered part is a random draw from the data of one study; scales do not carry over between parts.

Series 1
Target: Ras GTPase-activating protein-binding protein 1, full length (G3BP1, Homo sapiens, UniProt Q13283)
UniProt Q13283, sequence (whole entry, looked up): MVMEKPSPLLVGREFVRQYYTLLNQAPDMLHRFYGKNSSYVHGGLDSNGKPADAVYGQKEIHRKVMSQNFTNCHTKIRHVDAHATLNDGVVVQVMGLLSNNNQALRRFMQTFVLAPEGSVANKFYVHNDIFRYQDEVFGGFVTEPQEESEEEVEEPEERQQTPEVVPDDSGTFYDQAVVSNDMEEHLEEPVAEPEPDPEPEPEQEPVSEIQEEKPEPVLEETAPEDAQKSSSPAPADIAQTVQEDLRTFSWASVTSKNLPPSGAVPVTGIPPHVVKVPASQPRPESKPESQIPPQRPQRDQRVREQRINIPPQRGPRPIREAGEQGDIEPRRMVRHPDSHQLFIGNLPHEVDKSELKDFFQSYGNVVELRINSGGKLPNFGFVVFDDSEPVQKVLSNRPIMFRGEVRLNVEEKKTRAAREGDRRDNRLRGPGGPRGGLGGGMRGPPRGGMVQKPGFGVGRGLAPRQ
Technique: RNA Bind-n-Seq
Molecule type: RNA
Matrix: in vitro
Concentration: 200 nM
Notes: whole 134-nt RNA, ends assumed
With: 150 mM KCl
Reference: input library
Direction: higher = stronger binding
Shared flanks, not repeated: GGGAGUUCUACAGUCCGACGAUC … UGGAAUUCUCGGGUGUCAAGG
Oligonucleotide	log2 enrichment
UGUGCUACACAUCGUAUGUACCGAAUCGGGGAAAAAAAGGGGAAAAAAAGGGAAAAAAAGGGGAAAGUAUUAUGUUACGCCGUUCGGAUC	-0.418
AGUCCUGUGCUACACAUCGUAUGUACCGAAUCAAACCCCCAAACCCAAAUUUUUAAAAAAGUAUUAUGUUACGCCGUUCGGAUCUGCACU	-0.176
UCAAGUCCUGUGCUACACAUCGUAUGUACCGAAUCGGGGCCCGGCCCGGCCCGGGAAAGUAUUAUGUUACGCCGUUCGGAUCUGCACUUC	-0.823
CUCAAGUCCUGUGCUACACAUCGUAUGUACCGAAUCGGGAAGGAAGGGAAGGGGAAAGUAUUAUGUUACGCCGUUCGGAUCUGCACUUCC	0.328
UUUCGGCUACCCCCAGUUCUUCUUUGCCAAAGCGUACACGUGAAGAGGAAGAGGAUAGCACCAUAGAAGCAUCAGACCAAGUCUCUGAUG	-1.49
AGUCCUGUGCUACACAUCGUAUGUACCGAAUCAAAUUUAAACCCCCCCAAACCCAAAAAAGUAUUAUGUUACGCCGUUCGGAUCUGCACU	-0.293
UCCUCAAGUCCUGUGCUACACAUCGUAUGUACCGAAUCGGUUUGGUGGUGGAAAGUAUUAUGUUACGCCGUUCGGAUCUGCACUUCCAGC	-0.519
AGUCCUGUGCUACACAUCGUAUGUACCGAAUCGGGGUUUGGGGAAAGGGGUUUGGGGAAAGUAUUAUGUUACGCCGUUCGGAUCUGCACU	0.648
UCCUGUGCUACACAUCGUAUGUACCGAAUCGGCCCCCCCGGCCCCCCCGGCCCCCCCGGGAAAGUAUUAUGUUACGCCGUUCGGAUCUGC	0.419
CUCAGCAGACCCUGAAGGACACUUUGAGACACCAAUCUGGAUUGAGCGGGUGGUGAUAAUAGGGGCUGGAAAGCCAGCAGCUGUGGUACU	0.604
GCAGGAAGUAAGAACAAAUGGAAAUGCUUCGGAUAGUGGCAGGGGUGGGGGUUGCUAAGGAAAGGGUGGGAUGGGAGUGGGUAAAGAGUU	1.56
UUUAGGUGUUAGACGGUACCGACAACCAGUAUUUGGGCCUGCAGAUUGGACAGCCCCAGGAUGAAGAUGAGGAAGCCACAGGUAUUCUUC	-2.02
GUCCUGUGCUACACAUCGUAUGUACCGAAUCGGGGUUUUUGGGGUUUGGGGAAAGGGGAAAGUAUUAUGUUACGCCGUUCGGAUCUGCAC	0.775
GUCCUGUGCUACACAUCGUAUGUACCGAAUCGGAAAAAGGGGAAAAAGGGGAAAAAGGAAAGUAUUAUGUUACGCCGUUCGGAUCUGCAC	-0.429

Series 2
Target: PABPC1L2, full length, GST fusion (mouse, UniProt A0ABA7IW68)
Technique: RNAcompete
Molecule type: RNA
Matrix: in vitro
Concentration: 20 nM
Notes: 7-mer, probes averaged, single round
Reference: mean of 7-mers
Direction: higher = stronger binding
Construct (chain): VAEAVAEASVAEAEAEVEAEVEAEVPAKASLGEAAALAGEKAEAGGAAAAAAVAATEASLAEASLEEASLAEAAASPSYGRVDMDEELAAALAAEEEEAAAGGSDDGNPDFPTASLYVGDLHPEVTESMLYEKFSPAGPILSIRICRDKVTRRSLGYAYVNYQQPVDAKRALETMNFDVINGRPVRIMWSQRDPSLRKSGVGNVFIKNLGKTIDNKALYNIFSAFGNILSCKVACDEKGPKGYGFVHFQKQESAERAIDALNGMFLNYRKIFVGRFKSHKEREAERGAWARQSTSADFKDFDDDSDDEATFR
Oligonucleotide	7-mer Z-score
AGAAUAA	0.383
GGCCCGC	-0.18
GUAUGAA	0.0932
GUCUGUC	-0.235
AUGGACA	0.046
UGGCGGU	0.0334
GGACUCC	-0.229
AACAAAC	1.69
CAAUAUG	0.0642
CGGAACA	0.468
UAUCCCC	-0.38
UCUCAUU	-0.409
AAACGAU	0.981
ACAUAAG	0.206
GUUAGGC	-0.0971
GGCGUCG	-0.197
AUUUCCC	-0.389
ACUUACC	-0.26
CGAGCUU	-0.235
UGCACAA	0.0768
CGCUCUG	-0.338
UUAGGGU	-0.021
UAACCAU	-0.18
AACCUAA	0.126
CUACAAU	-0.191

Series 3
Target: human cyclin B1
Effect on: peptide binding
Technique: yeast competitive growth sequencing
Molecule type: peptide
Organism: Saccharomyces cerevisiae
Strain: cyclin B1-Cln2 fusion
Concentration: concentration not given
Notes: peptide tiling library
Direction: direction not given
Sequence	binding enrichment score
MNQELLSVGSKRRRTG	1.18
KVKRRLDLDIDGLQKE	1.06
SPREGHMMDALYAQVK	0.205
LKGRRLVFDN	-0.336
GFGFLLFICKLTF	0.258
VKTKKRLNFDDK	0.15
PKRAKRKLYTSEISSP	0.374
HPESPPRKRLKSKGSD	0.634
KRRLDLETDHQY	0.399
SFLIEYEFLIPPSLKP	0.2
TSSAQRRLEIPSGGAD	0.0856
ISRLFPPRTPGWHQLQ	-0.28
ELGMEHCEKFEISETS	0.426
NESHLDKEHDAVEVAD	0.272
PFSENVSAVQKLDFSD	1.31
NEGVSNAVRRSLYIRD	0.122
IFNKPECGRVQRAIFQ	0.525
TQERKQIHCLSEDELS	0.636
ATNSSHTDAHEILVSD	0.0747
GTPKRCLDLSNLSSGE	-0.518
EHCRVLFLDHVMYTIH	-0.0109
SMTDFYHSKRRLIFSK	-0.515
GPVKLEFDVSDGAT	0.0695
RTEALEQGGLPKKLIF	0.146
RRRIKLPESDSSED	0.498

Series 4
Target: TAR DNA-binding protein 43, full length, His tag (TARDBP, Homo sapiens, UniProt Q13148, residues 1-414)
Technique: RNA Bind-n-Seq
Molecule type: RNA
Matrix: in vitro
Concentration: 20 nM
Notes: 6-mer, flanks averaged, single round
With: 150 mM LiCl
Reference: input library
Direction: higher = stronger binding
Oligonucleotide	6-mer enrichment (R)
GCGCGG	1.16
AACAGC	0.823
UUGACG	0.947
AGUAUA	0.951
AUAUGA	0.924
AUUUGG	1.14
AGUAGC	0.944
AUAGAA	0.917
GAAGAG	1.06
UCUCCU	0.951
CACACU	0.888
GGAAUG	1.14
AUAGUA	0.945
UCCGUU	0.931
AUUAAG	0.921
CUCGUC	0.874
AGGCGA	0.932
GGACGA	0.984
CUCUAA	0.86
UCGCAG	0.867
UGGACC	0.954
UCGGCA	0.921
GAAAGU	0.947
GAUUCA	0.84
GGGCCC	1.14

Series 5
Target: RING finger protein unkempt homolog, zinc fingers 1-6, GST-SBP tag (UNK, Homo sapiens, UniProt Q9C0B0, residues 30-357)
UniProt Q9C0B0, sequence (30-357, looked up): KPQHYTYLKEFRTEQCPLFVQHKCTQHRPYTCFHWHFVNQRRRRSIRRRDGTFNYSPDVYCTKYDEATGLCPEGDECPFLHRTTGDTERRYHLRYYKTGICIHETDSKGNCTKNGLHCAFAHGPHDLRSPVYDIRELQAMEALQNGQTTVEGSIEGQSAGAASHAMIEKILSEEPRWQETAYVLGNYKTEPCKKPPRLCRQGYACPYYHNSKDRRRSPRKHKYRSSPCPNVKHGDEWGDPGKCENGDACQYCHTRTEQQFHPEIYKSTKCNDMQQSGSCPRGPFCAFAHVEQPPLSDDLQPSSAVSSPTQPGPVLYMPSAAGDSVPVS
Technique: RNA Bind-n-Seq
Molecule type: RNA
Matrix: in vitro
Concentration: not given
Notes: RNA with constant flanks, ends assumed
Reference: input RNA pool
Direction: higher = stronger binding
Shared flanks, not repeated: GGGAGUUCUACAGUCCGACGAUC … CAACAGAGGAUUGAGCAUCA
Oligonucleotide	bound/input enrichment [ratio]
GCAGGACGGGGAGGGACUGCGGCGGAGAUACCGGUCCCCGGGCAAAAGCAGGGACCGCGGUUCCGCUUCCAACGCGUGCUCUCUGGGCGGGGUGCGGCGGGGGAUGUGCCUGCCCAGUCC	0.112
GACUGUUCAAGCAAAAAAGGUAACUAACUGCUUCAUCUCCUUUUGCGCUUAUUUGGAAAUUUCCGUUAUAGUGUUUAACUGGCAUGGAUUAAUAGAGUUGGAGUUUUAUUUUUAAGAAAA	5.58
AACCGUUAACAUCACUGCUGUGGCCUCAUACUCUUUUUUCCAUUUUCUACAAGAAGCCUUUCCGUAUAUGAAAAUUAUUACUCUUUUUGGGGUUUAAAGAAAUGGUCUGCAUAACCUGAA	0.316
GAGGAUCCGGAACUGGCUAAGUCUUUUAUUAAGACAUUAUUUGGUGUUCUUUAUGAAGUGUACCGUUCCUCAGCAGGACCUGCGGUCAGACAUAAGUGCCUUAGAGCAAUUCUUAGGAUA	0.425
UCCGCGGAAGUCCCCGAGGCAGCGUCUGCGGAGGAGCAAAAGGAAAUGGAAGAUAAAGUAACCCGUCCAGAGAAAGCUGAAGAAGCAAAGUUAAAGGCAAGGUAUCCUCACUUGGGACAA	0.253
GCCAGAGGGGUUCUCAAGUGUGACAUUACAGAUCUCCAAAUCAUUUGCUCCUUGGGAUACCGCAUUCUUCUCAUGGUCACAUGUACUGUGUAUGCCAUCAAGACUCGGGGUGUACCCGAG	0.117
ACACCUUUGGCCAACAUUUCUUCUGAGUAUCCAAUGCAAAGAUCCAUGCCAGUGGUGCCAUCUUUUGCCGCCAGCAACAGAGCAGAUGAAAAUGCCGCUGCAUACUUUGAGAGUCCUAAU	0.192
AUAAGUAAUUCUCCCCACUUGAUUUUUCUUCUAUAAAAUCCCAUAGAACAAUGUUUAUGCUACCGCCAUUUAAUAUAUGUACAAAUUGUAAAGAAUAUGUAUAAAUGUUUUACACGAAUG	1.15
CCUGCAGCCGGGGGACGCUUCUGGGUUGGAGGACCUUCUGGAUGUAGCGUCGGUGGAACCUUCCGAUACUCUCCUCUGGAAAAGCCACCAUGAAUUCGGUAGCUGGGAAUAAAGAGAGGC	0.169
AACGCCAUGAAUUCCUUUGUUUAAUUUUUAAGCUCUUUGCCAAUAUUCCAUUUCUCCCGAAUGUUUAUCCUAAGCACUUGUUUGUCAGCCCUCUCAUACUAUGAACAUAUGGGUAGAGAG	1.02
CUUUUGAUUUCUUUUUCUUUUUUUCUCUUCUUGUUUUUGUUUUUCUUUUUUGUUUGUUUUUUCCGCAUGCAAAUAUGUUGGUACGUUAUGUCCUGGUUUAAAAGGAUUAAAAAUUUAAAA	0.808

Other studies, line by line
Substance	target	test	system	setting	how to read	quantity	result
PhoQ, residues 284 288 289 292 302 303 ALASRC	PhoP, residues 12 14 15 18 19 TQAIL (Escherichia coli, UniProt P23836)	Sort-seq, refers to: YFP reporter	E. coli	PhoQ-PhoP variant library, with: 10 µM Mg2+	reference: high Mg2+ state, higher = stronger signaling	fold induction	14.8

Some of these lines once more (series 3):
Sequence	binding enrichment score
SFLIEYEFLIPPSLKP	0.2
RRRIKLPESDSSED	0.498
PKRAKRKLYTSEISSP	0.374
NEGVSNAVRRSLYIRD	0.122
MNQELLSVGSKRRRTG	1.18
EHCRVLFLDHVMYTIH	-0.0109
KRRLDLETDHQY	0.399
ATNSSHTDAHEILVSD	0.0747
LKGRRLVFDN	-0.336
GFGFLLFICKLTF	0.258
IFNKPECGRVQRAIFQ	0.525
